{"data": "Results pooled from the literature", "note": "± gives the spread as reported."}
{"SMILES": "CC(=O)N([O-])CCCCCNC(=O)CCC(=O)N([O-])CCCCCNC(=O)CCC(=O)N([O-])CCCCCN.[89Zr+4]", "assay": "gamma counting", "system": "healthy Balb/c mice, plasma", "conditions": "intravenous, 1 h, 89Zr-labelled complex", "tissue uptake": "0.89 ± 0.23 %ID/g"}
{"SMILES": "COc1ccc(Nc2nc(Nc3ccc(OCCOCC[18F])cc3)ncc2Br)cc1", "system": "ICR mice, S180 tumour-bearing, brain", "conditions": "intravenous, 370 kBq, 30 min", "tissue uptake": "2.32 ± 0.31 %ID/g"}
{"SMILES": "O=C(NCC1OC2CCC=CCCC2O1)c1ccc([18F])nc1 (stereo not shown)", "system": "healthy female BALB/c nude mice, lungs", "conditions": "intravenous, 7.4 MBq per mouse, 5 min", "tissue uptake": "5 ± 1.3 %ID/g"}
{"SMILES": "Cc1cc(C)n(CCN(CCN)CCCCCCNC(=O)[C@@H](N)Cc2c[nH]cn2)n1.[99Tc+].[C-]#[O+].[C-]#[O+].[C-]#[O+]", "system": "BALB/c nude mice A549 xenograft, blood", "conditions": "intravenous, 4 h", "tissue uptake": "0.3 ± 0.01 %ID/g"}
{"SMILES": "Cc1nc(N)nc2c1C(=O)N[C@@H](c1ccc(F)cc1-c1cccc(OCC[18F])n1)C2", "assay": "ex vivo biodistribution", "system": "C57BL/6 mice, bone", "conditions": "intravenous, 1 MBq, 30 min", "tissue uptake": "6.57 ± 0.42 %ID"}
{"SMILES": "CC[C@H](C)[C@H](NC(=O)C[C@H](NC(=O)CN1CCN2CCN(CC1)CC(=O)[O][Al]([18F])[O]C(=O)C2)C(=O)O)C(=O)N[C@H]1CCc2cccc3c2N(C1=O)[C@H](C(=O)NCc1cn[nH]n1)C3", "system": "C57BL/6J mice, MC-38 tumour, anti-PD-1 treated, lung", "conditions": "0.5 h", "tissue uptake": "1.42 ± 0.37 %ID/g"}
{"SMILES": "O=C(NCC1OC2CCC=CCCC2O1)c1ccc(COCCOCCOCC[18F])cc1 (stereo not shown)", "system": "healthy female BALB/c nude mice, stomach", "conditions": "intravenous, 7.4 MBq per mouse, 30 min", "tissue uptake": "2.8 ± 0.4 %ID/g"}
{"SMILES": "CN(O)C(=O)CCC(=O)NCCCN(CCCCN(CCCNC(=O)CCC(=O)N(C)O)C(=O)CCC(=O)N(C)O)C(=O)CCC(=O)N(C)O.[89Zr]", "assay": "gamma counting", "system": "healthy Balb/c mice, muscle", "conditions": "intravenous, 24 h, 89Zr-labelled complex", "tissue uptake": "0.01 %ID/g"}
{"SMILES": "COc1ccc(Nc2nc(Nc3ccc(OCCOCCOCC[18F])cc3)ncc2Br)cc1", "system": "ICR mice, S180 tumour-bearing, brain", "conditions": "intravenous, 370 kBq, 5 min", "tissue uptake": "2.54 ± 0.11 %ID/g"}
{"SMILES": "CC(C)c1noc(C2CCN(c3ncnc(Nc4ccc(OCC[18F])cc4)c3[N+](=O)[O-])CC2)n1", "assay": "ex vivo biodistribution after PET", "system": "C57BL/J male mice, lung", "conditions": "60 min", "tissue uptake": "1.29 ± 0.07 %ID/g"}
{"note": "Excerpt of the above:"}
{"SMILES": "O=C(NCC1OC2CCC=CCCC2O1)c1ccc([18F])nc1 (stereo not shown)", "system": "healthy female BALB/c nude mice, lungs", "conditions": "intravenous, 7.4 MBq per mouse, 5 min", "tissue uptake": "5 ± 1.3 %ID/g"}
{"SMILES": "CC[C@H](C)[C@H](NC(=O)C[C@H](NC(=O)CN1CCN2CCN(CC1)CC(=O)[O][Al]([18F])[O]C(=O)C2)C(=O)O)C(=O)N[C@H]1CCc2cccc3c2N(C1=O)[C@H](C(=O)NCc1cn[nH]n1)C3", "system": "C57BL/6J mice, MC-38 tumour, anti-PD-1 treated, lung", "conditions": "0.5 h", "tissue uptake": "1.42 ± 0.37 %ID/g"}
